Published values gathered from unrelated publications.
Each numbered part is a random draw from the data of one study; scales do not carry over between parts. Substitutions count along the parent as printed.

Set 1
Target: ATF3, bZIP domain (human)
Technique: DHFR protein complementation
Sample: yeast
Setting: single substitutions, most at no-binding floor
Reference: wild-type JUN-FOS pair
Direction: higher = stronger binding
Parent: JUN, bZIP domain (human); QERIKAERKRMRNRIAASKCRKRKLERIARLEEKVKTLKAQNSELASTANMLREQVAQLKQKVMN; partner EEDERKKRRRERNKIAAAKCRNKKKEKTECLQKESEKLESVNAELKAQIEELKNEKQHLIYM
With `L38D` the binding fitness was -1.04 natural log.
`A57W` gave a binding fitness of -0.243 natural log.
With `V56N` the binding fitness was -0.583 natural log.
`Q55G` has a binding fitness of -0.844 natural log.
For `M51G`, the binding fitness was -0.216 natural log.
`V56M` gave a binding fitness of -0.929 natural log.
`K36L` gave a binding fitness of -0.155 natural log.
The binding fitness of `K34P` is reported as -1.36 natural log.
For `V35F`, the binding fitness was -0.528 natural log.
`I28E` gave a binding fitness of -0.166 natural log.
The binding fitness of `L38P` is reported as -1.35 natural log.
With `A49W` the binding fitness was -0.288 natural log.

Set 2
Target: Histone acetyltransferase KAT6A, both winged helices, GST fusion (KAT6A, Homo sapiens, UniProt Q92794, residues 1-181)
Technique: protein binding microarray
Molecule type: double-stranded DNA, one strand shown
Sample: in vitro
Concentration: not given
Setting: 8-mer, flanks averaged, mean of 2 arrays, mostly near background
Reference: not given
Direction: higher = stronger binding
Residues (chain): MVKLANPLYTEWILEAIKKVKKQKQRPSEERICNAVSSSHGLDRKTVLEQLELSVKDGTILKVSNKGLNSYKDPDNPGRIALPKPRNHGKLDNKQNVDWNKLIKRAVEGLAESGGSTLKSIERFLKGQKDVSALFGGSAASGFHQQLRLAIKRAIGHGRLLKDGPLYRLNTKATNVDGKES
`AGCTTCGC` gave an E-score of -0.0267.
`TACGCGAA` gave an E-score of 0.242.
`ACGGAACA` gave an E-score of 0.227.
The E-score of `AAAAAGGT` is reported as -0.24.
`TCCATAAA` has an E-score of -0.202.
`CTGGTCTC` gave an E-score of -0.205.
The E-score of `ACATGCAG` is reported as -0.0566.
With `ACCACGGG` the E-score was 0.104.
`ATGGGTGG` gave an E-score of -0.233.
`TCAACCAA` gave an E-score of -0.103.
For `GGGCCAAC`, the E-score was -0.145.
`AACCAACA` has an E-score of -0.115.
The E-score of `TCATGCAA` is reported as -0.0969.
For `AGCGAACG`, the E-score was 0.138.
The E-score of `GATCGGAA` is reported as 0.124.
The E-score of `CTGCCACA` is reported as -0.102.
With `GCGTATAA` the E-score was 0.205.
`CCTTTGAC` has an E-score of -0.056.
With `TACAGCTA` the E-score was -0.225.
For `ACAGAGCG`, the E-score was 0.118.
For `ACTTTCAC`, the E-score was -0.0125.
The E-score of `CCTAGGCC` is reported as -0.1.
`ATAAACGA` gave an E-score of 0.0747.
`CGCACCCC` gave an E-score of 0.0972.
`CACATGGG` has an E-score of -0.185.

Set 3
Target: Prothrombin, mature alpha-thrombin (F2, Homo sapiens, UniProt P00734)
Technique: aptamer microarray, sandwich
Molecule type: DNA with 2'F-ANA
Sample: in vitro
Concentration: 200 nM
Setting: whole 15-mer aptamer, many near background
Added: Cy3 exosite-II aptamer, 400 nM
Direction: higher = stronger binding
Oligonucleotide: GGTTGGTGTGGTTGG
For `2'F-ANA at 3 4 5 6 7 8 11 14`, “mean fluorescence intensity” read 50.5 a.u.
`2'F-ANA at 2 3 4 6 8 9`: “mean fluorescence intensity” 568 a.u.
Under “mean fluorescence intensity”, `2'F-ANA at 1 4 7 8 9 10 11 12 13 14` is recorded as 52.5 a.u.
`2'F-ANA at 3 6 7 9 12 13 14 15` — result for “mean fluorescence intensity”: 489 a.u.
Under “mean fluorescence intensity”, `2'F-ANA at 2 3 13 14 15` is recorded as 419 a.u.
For `2'F-ANA at 4 5 9 10 11`, “mean fluorescence intensity” read 123 a.u.
Under “mean fluorescence intensity”, `2'F-ANA at 1 2 3 4 5 6 8 11 12 15` is recorded as 95.5 a.u.
`2'F-ANA at 1 2 4 8 9 10 11 14 15`: “mean fluorescence intensity” 48.7 a.u.
Under “mean fluorescence intensity”, `2'F-ANA at 3 4 5 8 11 12 13` is recorded as 141 a.u.
`2'F-ANA at 1 2 4 8 9 11 13 15` — result for “mean fluorescence intensity”: 86.4 a.u.
`2'F-ANA at 1 2 3 5 6 8 9 10 12`: “mean fluorescence intensity” 50.5 a.u.
For `2'F-ANA at 4 5 7 10 13 14 15`, “mean fluorescence intensity” read 43.5 a.u.
`2'F-ANA at 5 6 7 8 9 10 11 15`: “mean fluorescence intensity” 55.9 a.u.
Under “mean fluorescence intensity”, `2'F-ANA at 3 6 7 8 9 13 15` is recorded as 797 a.u.
Under “mean fluorescence intensity”, `2'F-ANA at 5 10 12 14 15` is recorded as 45.2 a.u.
`2'F-ANA at 1 4 11 13 14`: “mean fluorescence intensity” 45.9 a.u.

Set 4
Target: ABI1, truncated, D143A, DHFR fusion (Arabidopsis thaliana)
Technique: DHFR PCA, deep sequencing
Sample: yeast
Setting: methotrexate growth selection, single substitutions
Added: (+)-ABA 0 µM
Reference: wild-type fitted maximum
Direction: higher = stronger binding
Parent: PYL1, truncated, DHFR fusion (Arabidopsis thaliana); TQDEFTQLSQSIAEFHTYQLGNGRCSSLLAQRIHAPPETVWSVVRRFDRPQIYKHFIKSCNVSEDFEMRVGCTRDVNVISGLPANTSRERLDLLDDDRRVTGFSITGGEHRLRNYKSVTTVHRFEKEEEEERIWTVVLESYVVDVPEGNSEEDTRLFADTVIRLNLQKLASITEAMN
For `D65G`, “relative binding score” read 21.1%.
`R132F`: “relative binding score” -3.89%.
For `D75P`, “relative binding score” read 0.458%.
`A175R` — result for “relative binding score”: 25.7%.
`I12C`: “relative binding score” 1.01%.
`G107D`: “relative binding score” 23.8%.
`N22E`: “relative binding score” 52.7%.
`S27E`: “relative binding score” 3.62%.
Under “relative binding score”, `F157V` is recorded as 8.22%.
`E127V`: “relative binding score” 25%.
`T17K`: “relative binding score” 5.46%.
Under “relative binding score”, `W41F` is recorded as 0.762%.
`E139W` — result for “relative binding score”: 5.13%.
`L91T` — result for “relative binding score”: -1.98%.
`K58M` — result for “relative binding score”: -6.92%.
`I57C` — result for “relative binding score”: -1.89%.

Set 5
Target: CCND2, cyclin fold, Cln2 fusion (human)
Technique: yeast growth competition, sequencing
Sample: yeast
Setting: weak parent motif
Reference: not given
Direction: higher = stronger binding
Parent: HASPIN docking peptide (human); ASLRSVLFGLMNS
`AALRSVLFGLMNS [S2A]` — result for “normalised enrichment score”: -0.882.
For `ASLRSVAFGLMNS [L7A]`, “normalised enrichment score” read 0.0102.
Under “normalised enrichment score”, `ASLRSVLFALMNS [G9A]` is recorded as -0.488.
Under “normalised enrichment score”, `ASLRSVLFGLANS [M11A]` is recorded as -0.129.
Under “normalised enrichment score”, `ASLRSVLAGLMNS [F8A]` is recorded as -1.01.
`ASLRSVLFGLMAS [N12A]` — result for “normalised enrichment score”: 0.0137.

Set 6
Target: Ras GTPase-activating protein-binding protein 1, full length (G3BP1, Homo sapiens, UniProt Q13283)
Sequence of UniProt Q13283 (whole entry, looked up): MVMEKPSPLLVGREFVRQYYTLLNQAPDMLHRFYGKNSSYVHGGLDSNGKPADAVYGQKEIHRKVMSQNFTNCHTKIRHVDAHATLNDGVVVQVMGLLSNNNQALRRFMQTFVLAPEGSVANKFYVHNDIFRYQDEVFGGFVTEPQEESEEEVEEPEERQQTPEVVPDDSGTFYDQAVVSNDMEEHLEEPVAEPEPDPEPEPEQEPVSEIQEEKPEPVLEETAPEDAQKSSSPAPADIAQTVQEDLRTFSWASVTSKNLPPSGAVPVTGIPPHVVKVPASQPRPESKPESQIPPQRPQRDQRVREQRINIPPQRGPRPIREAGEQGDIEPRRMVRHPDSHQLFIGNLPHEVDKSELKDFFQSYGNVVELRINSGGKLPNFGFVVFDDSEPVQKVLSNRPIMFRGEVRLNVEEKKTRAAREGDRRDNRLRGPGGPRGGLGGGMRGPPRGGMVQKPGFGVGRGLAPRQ
Technique: RNA Bind-n-Seq
Molecule type: RNA
Sample: in vitro
Concentration: 200 nM
Setting: whole 134-nt RNA, ends assumed
Added: 150 mM LiCl
Reference: input library
Direction: higher = stronger binding
All molecules: 7-deaza-guanosine replaces G
`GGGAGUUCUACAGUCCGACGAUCCCUGUGCUACACAUCGUAUGUACCGAAUCGGUUUUUUUGGGGUUUUUUUGGUUUUUUUGGGAAAGUAUUAUGUUACGCCGUUCGGAUCUGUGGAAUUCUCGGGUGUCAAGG` gave a log2 enrichment of 0.79.
`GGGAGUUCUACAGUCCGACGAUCUUGCUAAUCUAUAAAUUUUUUUUAUAUGAAAUAGCUCAUAGUCGGAAGCCGGCACCCUCAAAUGAGCCCGAAUAUCUAUGUAAAUGGAUGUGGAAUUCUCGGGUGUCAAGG` has a log2 enrichment of -2.95.
The log2 enrichment of `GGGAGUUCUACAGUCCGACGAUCCUCAAGUCCUGUGCUACACAUCGUAUGUACCGAAUCGGAAGGGAAGGGAAGGGGAAAGUAUUAUGUUACGCCGUUCGGAUCUGCACUUCCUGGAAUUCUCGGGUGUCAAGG` is reported as 0.0468.
The log2 enrichment of `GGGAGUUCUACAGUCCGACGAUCUGGGAGGUGGAUUUUGUUUAUUUUUUUAGCUCAUUUCCAGGGGUGGGAAUUUUUUUUUAAUAUGUGUCAUGAAUAAAGUUGAUUUUGAAAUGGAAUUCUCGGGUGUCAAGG` is reported as -0.187.
For `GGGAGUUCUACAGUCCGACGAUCUGGCCCUGGUGGCAUGCGGGGAGGAACAGGUGGCCUCAUGGAUCGUGGUGGUCCCGGUGGAAUGUUCAGAGGUGGCCGUGGUGGAGACAGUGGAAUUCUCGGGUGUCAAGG`, the log2 enrichment was 0.27.
`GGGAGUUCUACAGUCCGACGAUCACCAUGCAGGUGGGCAUCUUUGGGAAGUGGGGCAACGGGGGGAUAGGGAGGGGGGUAACACUUUGGGAACAGGUGGUCCCAGGUCGUUUCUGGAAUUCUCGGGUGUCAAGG` gave a log2 enrichment of 0.0637.
The log2 enrichment of `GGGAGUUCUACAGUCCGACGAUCACCAUGCAGGUGGGCAUCUUUGGGAAGUGGGGCAAGGGGGGGAUAGGGAGCGGGGUAACACUUUGGGAACAGGUGGUCCCAGGUCGUUUCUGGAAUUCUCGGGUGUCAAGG` is reported as 0.313.
`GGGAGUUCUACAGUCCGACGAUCAAGUCCUGUGCUACACAUCGUAUGUACCGAAUCGGAAAGGGGAAAGGGGAAAGGGGAAAGUAUUAUGUUACGCCGUUCGGAUCUGCACUUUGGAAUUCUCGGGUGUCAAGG` has a log2 enrichment of 0.629.
`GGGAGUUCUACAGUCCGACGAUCCUCAAGUCCUGUGCUACACAUCGUAUGUACCGAAUCGGAGGUUUUUGGUUUGGAAAGUAUUAUGUUACGCCGUUCGGAUCUGCACUUCCAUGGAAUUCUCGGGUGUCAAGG` has a log2 enrichment of -0.526.
`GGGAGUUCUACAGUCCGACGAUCAAAGCAAGAGAUGGCUAGUGCUUCAUCCAGCCAAAGAGGUAUGCUUGUUGCUUAAUUAAACCUUAAAGGUAACUUUGAGUUACUCCAGUAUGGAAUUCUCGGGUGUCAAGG` gave a log2 enrichment of -1.8.
`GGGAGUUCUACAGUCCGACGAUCCCUGUGCUACACAUCGUAUGUACCGAAUCGGGGUUUUUUGGUUUUUUGGGGUUUUUUGGGAAAGUAUUAUGUUACGCCGUUCGGAUCUGCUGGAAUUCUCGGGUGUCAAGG` gave a log2 enrichment of -0.00973.

A few entries again (set 4):
`G107D`: “relative binding score” 23.8%.
`K58M` — result for “relative binding score”: -6.92%.
`E139W` — result for “relative binding score”: 5.13%.
`N22E`: “relative binding score” 52.7%.
`E127V`: “relative binding score” 25%.
`A175R` — result for “relative binding score”: 25.7%.
For `D75P`, “relative binding score” read 0.458%.
`T17K`: “relative binding score” 5.46%.
